Experimental data gathered from unrelated publications.
Each numbered part is a random draw from the data of one study; scales do not carry over between parts.

Series 1 — technique: protein-binding microarray; form: double-stranded DNA, one strand shown; matrix: in vitro; concentration: not given; reading: higher = stronger binding
Target: Myc proto-oncogene protein, bHLH-zipper, MAX partner unstated (MYC, Homo sapiens, UniProt P01106, residues 368-449)
UniProt P01106, sequence (368-449, looked up): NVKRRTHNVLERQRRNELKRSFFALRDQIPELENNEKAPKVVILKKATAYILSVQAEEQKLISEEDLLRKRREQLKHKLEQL
Notes: k-mer, scored over probes, only values ≥0.25
| Oligonucleotide | E-score |
| --- | --- |
| GCATGGCA | 0.394 |
| TGCGTCCA | 0.286 |
| GCGTTTCC | 0.275 |
| ACATGCGG | 0.465 |
| CTGCATGC | 0.374 |
| CGCGCGGC | 0.364 |
| GCGCGGGA | 0.277 |
| ACGCGCAT | 0.332 |

Series 2 — observed: binding; technique: phage display NGS; form: peptide; concentration: concentration not given; notes: panning round 2; reference: input library
Target: UDP-N-acetylglucosamine--peptide N-acetylglucosaminyltransferase 110 kDa subunit (OGT, Homo sapiens, UniProt O15294)
UniProt O15294, sequence (whole entry, looked up): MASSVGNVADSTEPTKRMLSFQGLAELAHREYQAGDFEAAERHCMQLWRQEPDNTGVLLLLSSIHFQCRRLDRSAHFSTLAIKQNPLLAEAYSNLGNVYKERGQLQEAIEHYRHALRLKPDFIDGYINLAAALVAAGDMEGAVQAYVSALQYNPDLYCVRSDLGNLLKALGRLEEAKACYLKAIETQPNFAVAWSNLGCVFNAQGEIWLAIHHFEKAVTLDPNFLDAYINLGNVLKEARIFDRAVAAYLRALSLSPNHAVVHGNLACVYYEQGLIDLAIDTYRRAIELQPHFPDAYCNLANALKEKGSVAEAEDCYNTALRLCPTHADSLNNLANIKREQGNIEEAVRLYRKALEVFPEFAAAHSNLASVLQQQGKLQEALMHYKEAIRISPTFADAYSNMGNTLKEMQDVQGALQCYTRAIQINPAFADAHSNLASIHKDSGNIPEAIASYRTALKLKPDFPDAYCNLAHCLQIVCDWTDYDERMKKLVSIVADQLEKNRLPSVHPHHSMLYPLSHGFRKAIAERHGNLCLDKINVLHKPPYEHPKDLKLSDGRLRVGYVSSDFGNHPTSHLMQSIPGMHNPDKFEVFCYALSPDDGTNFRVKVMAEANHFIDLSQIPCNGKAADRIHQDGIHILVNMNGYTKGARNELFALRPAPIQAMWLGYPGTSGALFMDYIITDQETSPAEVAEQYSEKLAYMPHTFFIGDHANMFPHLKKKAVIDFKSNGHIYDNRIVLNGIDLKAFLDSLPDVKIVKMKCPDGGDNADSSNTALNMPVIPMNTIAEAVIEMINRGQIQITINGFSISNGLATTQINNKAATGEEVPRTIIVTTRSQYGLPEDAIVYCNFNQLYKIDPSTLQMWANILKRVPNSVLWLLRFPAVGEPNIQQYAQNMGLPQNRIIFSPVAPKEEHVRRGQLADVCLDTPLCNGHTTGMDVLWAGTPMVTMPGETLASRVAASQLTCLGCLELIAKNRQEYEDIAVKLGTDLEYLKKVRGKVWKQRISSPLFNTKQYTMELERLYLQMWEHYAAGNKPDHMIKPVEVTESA
| Molecule | enrichment fold change |
| --- | --- |
| VDTWHQRHHHQFSVD | 5.23 |
| SINYKLQPKYQIFFP | 8.89 |
| QAQFMPVYQMQSMAR | 4.21 |
| VQAQFRPVYQIYSAP | 4.44 |
| MQEYSPGYQIQFSKP | 7.66 |
| SHMESHANNHHRAHW | 5.03 |
| HWQHVHHADPSDAVK | 9.4 |
| VTPKDRYLPKYTITF | 18.3 |
| NLYRPQYQINFFDTI | 85.4 |
| RTFFPMYEIVIGMT | 7.35 |
| AFSPFFPVYSIEIRR | 9.8 |
| RFMPVYQMNVPEIDV | 10 |
| SQHVFINYHNHTHT | 4.84 |
| SDRTPYTPRYQISY | 7.84 |
| TVTPKYPPQYQILV | 10.9 |
| VVPHMMHQWEHHHA | 19.7 |
| YDFLPMYQIRFYDYN | 5.06 |
| RPYDMAYAPVYMIKY | 6.01 |
| YGPHNHFHPHDHMP | 5.89 |
| EYTPEYQIHYQVVQS | 17.7 |
| QYVPYYQIEVNSQPY | 5.24 |
| TARNHHAAHYSLHRG | 10.3 |
| EQHFPPAYLITYKSR | 16.1 |

Series 3 — technique: RNAcompete; form: RNA; matrix: in vitro; concentration: 20 nM; notes: 7-mer, probes averaged, single round; reference: mean of 7-mers; reading: higher = stronger binding
Target: PABPC1L2, full length, GST fusion (mouse, UniProt A0ABA7IW68)
Residues (chain): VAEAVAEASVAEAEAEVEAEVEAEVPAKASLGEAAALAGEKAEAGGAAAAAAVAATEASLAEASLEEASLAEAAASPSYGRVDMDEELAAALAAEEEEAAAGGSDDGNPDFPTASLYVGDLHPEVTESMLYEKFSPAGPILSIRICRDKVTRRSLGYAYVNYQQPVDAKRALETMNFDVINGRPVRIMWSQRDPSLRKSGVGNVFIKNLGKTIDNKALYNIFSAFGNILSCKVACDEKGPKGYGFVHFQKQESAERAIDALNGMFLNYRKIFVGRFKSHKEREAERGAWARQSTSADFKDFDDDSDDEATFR
| Oligonucleotide | 7-mer Z-score |
| --- | --- |
| ACUUUUA | -0.0047 |
| ACGGAAU | 0.00436 |
| ACGGGAU | 0.0986 |
| CGUAGGC | -0.124 |
| ACUAUUA | 0.0823 |
| UCAGCAG | -0.0573 |
| ACCGCGC | -0.0953 |
| ACGUGGC | 0.149 |

Series 4 — technique: protein-binding microarray; form: double-stranded DNA, one strand shown; matrix: in vitro; concentration: 250 nM; notes: 60-bp whole probe; together with: salmon DNA 0.4 mg/ml; reference: random background probes; reading: higher = stronger binding; all sequences stand within: GCCTAGCAC … GTCTTGATTCGCTTGACGCTGCTG
Target: Interferon regulatory factor 7, full length, phosphomimetic (IRF7, Homo sapiens, UniProt Q92985, residues 1-503, S101K/S471D/S472D/S475D/S476D/S477D/S483D/S484D/S487D)
Construct (chain): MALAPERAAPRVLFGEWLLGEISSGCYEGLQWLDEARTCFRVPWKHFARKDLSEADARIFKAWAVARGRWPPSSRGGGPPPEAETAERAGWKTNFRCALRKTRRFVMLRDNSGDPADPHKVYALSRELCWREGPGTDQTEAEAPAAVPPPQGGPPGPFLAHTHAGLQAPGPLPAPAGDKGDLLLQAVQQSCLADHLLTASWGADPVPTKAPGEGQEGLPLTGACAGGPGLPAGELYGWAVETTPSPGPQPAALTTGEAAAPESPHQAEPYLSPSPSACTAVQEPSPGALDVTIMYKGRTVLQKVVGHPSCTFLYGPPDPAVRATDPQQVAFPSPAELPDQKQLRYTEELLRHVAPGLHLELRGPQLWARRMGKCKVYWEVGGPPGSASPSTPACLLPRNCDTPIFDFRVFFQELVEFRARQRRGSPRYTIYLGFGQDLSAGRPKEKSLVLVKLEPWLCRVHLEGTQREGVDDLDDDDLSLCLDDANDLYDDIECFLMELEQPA
| Oligonucleotide | log fluorescence |
| --- | --- |
| TCAACTCTCTGCTTGTAACTGTGCTAG | -0.0459 z-score |
| GACGGTATCCTTTACCTGACGTGCTAG | -0.102 z-score |
| TTAGGTATCGGTCTCGGTTAGTGCTAG | 2.17 z-score |
| GACGGTCTCGGAATCGGGACGTGCTAG | 1.66 z-score |
| GATGGTATCGACTTTCGGGACGTGCTA | 1.53 z-score |
| TTAGGTCTCCTTCTCCTTGAGTGCTAG | 0.43 z-score |
| TTAGGTTTCGGACTGGGATAGTGCTAG | 3.85 z-score |
| GATTATAAAATGTGTGTTTGGTGCTAG | 0.595 z-score |

Single results of other studies
| SMILES | host | matrix | route | dose | notes | quantity | value |
| --- | --- | --- | --- | --- | --- | --- | --- |
| CNC(=O)c1ccc(-c2cnn3ccc(C(=O)N(C)c4ccc(Cl)c(C(=O)OC)c4)cc23)cc1 | beagle dog | plasma | oral | 250 mg/kg/day | multiple doses | Cmax | 76.5 ng/mL |
